# Experimental data collected from several papers.
# Lines come from different studies, so protocols differ. ± marks the error that the study gave.
Compound,test,system,setting,scale,measurement,value
CCOP(=O)(CC(=O)Nc1ccc(S(=O)(=O)N(CC(N)=O)c2ccc(N(CC(N)=O)S(=O)(=O)c3ccc(OC)cc3)c3ccccc23)cc1)OCC,Western blot,"APP/PS1 mice, hippocampus and frontal cortex",40 mg/kg,relative to: untreated APP/PS1 mice,NQO1 protein level,increased
COc1ccc(C2CC(c3ccc(C)cc3)=Nc3ccccc3S2)cc1 (stereo not drawn),,"Wistar rat, STZ-induced diabetes","oral, 20 mg/kg once daily, day 21",,blood glucose,123 ± 4.7 mg/dL
CC(=O)[O-].O.O.O.O.[Co+2].[O-]c1ccc(Br)cc1C=NCCN1CCOCC1,FRAP,,240 µM,,ferric reducing power,61.8%
CCCCC1NC(=O)c2ccccc21 (racemic),Longa method,Sprague Dawley rat pMCAO model,"intraperitoneal, 50 mg/kg, 2 h after occlusion onset",relative to: model group,neurological deficit score,decreased
C[N+]1=C(C=CC=CC=C2N(CCCCCC(=O)NCCCC[C@H](NC(=O)[C@@H](CCC(=O)O)NC(=O)[C@@H](CCC(=O)O)NC(=O)[C@@H](CCC(=O)O)NC(=O)CCCCCNC(=O)C3CCC(CNC(=O)CC[C@H](NC(=O)N[C@@H](CCC(=O)O)C(=O)O)C(=O)O)CC3)C(N)=O)c3ccc4ccccc4c3C2(C)C)C(C)(C)c2c1ccc1ccccc21 (stereo partly drawn),fluorescence molecular tomography,"mouse, PC3pip tumour xenograft, PC3pip tumour","iv, 1 nmol, 24 h",,probe amount in tumour,50.8 ± 2.6 pmol
CCn1nc(Cl)c2c1-c1cnc(N)c(c1)O[C@H](C)c1cc(F)ccc1-c1nn(C)cc1C2,,human,"oral, 50 mg once daily, week 6",,change in target lesion size,-31%
CC(C)c1cnc(-c2cc(Cl)ccc2F)cc1Nc1ccncc1C(=O)NC(CO)CO,,"human, advanced solid tumour","concentration not given, phase I",,duration of stable disease,35 to 283 days
CC(=O)C1=C(C)NC(=O)NC1c1ccc(Cl)cc1 (stereo not drawn),DPPH radical scavenging,,,relative to: gallic acid,antioxidant potency ratio,~2.5 fold
O=C1/C(=C/c2ccc(O)c(O)c2)Oc2c1c(O)cc(O)c2-c1ccc(O)c(O)c1,,"mouse, CCl4-induced liver injury","intragastric, 200 or 100 mg/kg, 10 days pretreatment",,serum AST level,decreased
CCCCCCCOC(=O)Cc1c(C)n(C(=O)c2ccc(Cl)cc2)c2ccc(OC)cc12,hot plate test,BALB/c mice,"75 mg/kg, 60 min",,latency of nociceptive response,16.4 ± 0.74 s
CN(C)C(=O)c1ccnc(N2Cc3cn(Cc4ccc(F)cc4F)nc3C2)n1,EAE clinical score,mouse EAE model,"oral, 5 mg/kg daily from day 11, 264 h, unit not given",relative to: vehicle,effect size d,-2.08
CC(=O)c1cnc(N)nc1N1CC[C@H]1c1nn2ccc(Cl)c2c(=O)n1-c1ccccc1,,"rat, plasma","oral, 10 mg/kg, 8 h, with: Con-A 30 mg/kg iv",,IFNγ level,46 ± 4 ng/mL
CC[C@H]1[C@@H](O)[C@@H]2[C@H](CC[C@]3(C)[C@@H]([C@H](C)CCOS(=O)(=O)[O-])CC[C@@H]23)[C@@]2(C)CC[C@@H](O)C[C@@H]12.[Na+],,"ob/ob NASH mouse model, plasma","oral, 3 mg/kg once daily, before treatment, baseline of 8 week study",,ALT activity,552 ± 36.1 U/L
COc1ccc2c(c1OC)C(C(Cl)(Cl)Cl)N1CCc3cc4c(cc3C1=C2)OCO4 (stereo not drawn),,"rat, STZ-induced diabetic, serum","oral, 12 mg/kg, day 28",,LDL cholesterol,43.9 ± 1.87 mg/dL
COc1ccc(C2CC(c3ccc(C)cc3)=Nc3ccccc3S2)cc1OC (stereo not drawn),,"Wistar rat, STZ-induced diabetes","oral, 20 mg/kg once daily, day 7",,blood glucose,225 mg/dL
CCCCCCCCCCCCCCCC(=O)NCCCC[C@H](N)C(=O)N[C@@H](CC(=O)O)C(=O)N[C@H](C(=O)N[C@@H](Cc1c[nH]cn1)C(=O)N[C@@H](Cc1ccccc1)C(=O)N[C@@H](CCCNC(=N)N)C(=O)N[C@H](C(=O)N[C@@H](Cc1ccccc1)C(=O)N[C@@H](CCCNC(=N)N)C(=O)N[C@@H](CO)C(=O)N[C@@H](Cc1c[nH]cn1)C(=O)N[C@@H](CO)C(=O)N[C@@H](CC(=O)O)C(=O)N[C@@H](Cc1ccc(O)cc1)C(=O)N[C@@H](CCCNC(=N)N)C(=O)N[C@@H](CCCNC(=N)N)C(=O)N[C@H](C(=O)O)[C@@H](C)CC)[C@@H](C)O)[C@@H](C)O,,"C57BL/6J mouse, MCD diet","intraperitoneal, 0.6 nmol/g, 3 weeks, 3 times weekly",,blood glucose,93.8 ± 3.9 mg/dL
CC(C)n1cnc(-c2ccc(F)cc2)c1-c1ncc(C(=O)Nc2ccc(N3CCN(C)CC3)cc2)[nH]1,,IPF patients,"60 mg once daily, 12 weeks, mean",relative to: baseline,change in FVC,98.4 mL
N=C(N)NCCC[C@@H]1NC(=O)[C@H](CCCNC(=N)N)NC(=O)[C@H](CCCNC(=N)N)NC(=O)[C@H](Cc2ccc3ccccc3c2)NC(=O)[C@H](Cc2c[nH]c3ccccc23)NC(=O)[C@H](Cc2ccc3ccccc3c2)NC(=O)[C@H](CCCNC(=N)N)NC1=O,,bacterial mimic liposomes,"5 µg/mL, 60 min",,calcein leakage,~60%
CCOc1c(C(C)(C)O)sc2cnc(Nc3ccc(N4CCC(N5CC6(COC6)C5)CC4)cc3OC)nc12,,human atrial trabeculae,"1 and 3 µM, stimulation 1 Hz",relative to: vehicle,developed tension,no effect
Cc1cc(O)c(C=O)c2c1C(=O)Oc1c(CO)c(O)c3c(c1O2)C(O)OC3=O (stereo not drawn),,"rat, male, streptozotocin-induced diabetes","5 mg/kg, 0 weeks",,fasting plasma glucose,332 ± 5.43 mg/dL
COc1c2c(cc3oc(CO)cc(=O)c13)O[C@H](C(C)(C)O)C2,analgesia,mouse,"oral, 2 mg/kg, 1.5 h",,hot plate latency,15.5 ± 2.24 s
O=C(OC(C(F)(F)F)C(F)(F)F)N1CCC(CNS(=O)(=O)c2ccc(Cl)cc2)CC1,measured: other monoacylglycerols,"mouse, whole brain","oral, 10 and 30 mg/kg",,monoacylglycerol levels,no effect
CC12CC(O)C3CC1(OC1OC(CO)C(O)C(O)C1O)C3(COC(=O)c1ccccc1)C(=O)O2 (stereo not drawn),,"mice, reserpine-induced depression","7 mg/kg, 7 days, 4 h after reserpine",,body temperature,34.7 ± 0.5 °C
CN(C)S(=O)(=O)c1cc(C(=O)O)ccc1NCCCCCCCC(F)(F)F,,"hippocampal neurons 3 DIV, mouse","10 µM, with: GABA 100 µM",relative to: DMSO,Ca2+ influx,decreased
CCCCCCCCCn1cc(C(N)(CO)CO)nn1,,"APP/PS1 mouse, plasma, cortex, hippocampus","oral, up to 10 mg/kg",relative to: PBS,acid sphingomyelinase activity,decreased
Cc1cc2c(cc1C1(c3ncc(C(=O)O)cn3)CC1)C(C)(C)CCC2(C)C,"RNA sequencing, measured: Alb mRNA","rat, brain","dose not given, 24 h, single dose",relative to: vehicle,log2 fold change,-2.52
Cc1nc(C)c(C=[N+]([O-])C(C)(C)C)nc1C,"Western blot, measured: Nrf2","mouse, MPTP model, substantia nigra nuclei",10 mg/kg,,protein level increase,36.5%

# Some of these lines once more:
Compound,test,system,setting,scale,measurement,value
CCOP(=O)(CC(=O)Nc1ccc(S(=O)(=O)N(CC(N)=O)c2ccc(N(CC(N)=O)S(=O)(=O)c3ccc(OC)cc3)c3ccccc23)cc1)OCC,Western blot,"APP/PS1 mice, hippocampus and frontal cortex",40 mg/kg,relative to: untreated APP/PS1 mice,NQO1 protein level,increased
COc1ccc(C2CC(c3ccc(C)cc3)=Nc3ccccc3S2)cc1 (stereo not drawn),,"Wistar rat, STZ-induced diabetes","oral, 20 mg/kg once daily, day 21",,blood glucose,123 ± 4.7 mg/dL
CC(=O)[O-].O.O.O.O.[Co+2].[O-]c1ccc(Br)cc1C=NCCN1CCOCC1,FRAP,,240 µM,,ferric reducing power,61.8%
